Measurements pooled from the literature.
Parts stem from different laboratories: compare values within a part only. Several values in a cell are separate wells, animals, samples, runs or records.
UniProt Q6XUX3, sequence (whole entry, looked up): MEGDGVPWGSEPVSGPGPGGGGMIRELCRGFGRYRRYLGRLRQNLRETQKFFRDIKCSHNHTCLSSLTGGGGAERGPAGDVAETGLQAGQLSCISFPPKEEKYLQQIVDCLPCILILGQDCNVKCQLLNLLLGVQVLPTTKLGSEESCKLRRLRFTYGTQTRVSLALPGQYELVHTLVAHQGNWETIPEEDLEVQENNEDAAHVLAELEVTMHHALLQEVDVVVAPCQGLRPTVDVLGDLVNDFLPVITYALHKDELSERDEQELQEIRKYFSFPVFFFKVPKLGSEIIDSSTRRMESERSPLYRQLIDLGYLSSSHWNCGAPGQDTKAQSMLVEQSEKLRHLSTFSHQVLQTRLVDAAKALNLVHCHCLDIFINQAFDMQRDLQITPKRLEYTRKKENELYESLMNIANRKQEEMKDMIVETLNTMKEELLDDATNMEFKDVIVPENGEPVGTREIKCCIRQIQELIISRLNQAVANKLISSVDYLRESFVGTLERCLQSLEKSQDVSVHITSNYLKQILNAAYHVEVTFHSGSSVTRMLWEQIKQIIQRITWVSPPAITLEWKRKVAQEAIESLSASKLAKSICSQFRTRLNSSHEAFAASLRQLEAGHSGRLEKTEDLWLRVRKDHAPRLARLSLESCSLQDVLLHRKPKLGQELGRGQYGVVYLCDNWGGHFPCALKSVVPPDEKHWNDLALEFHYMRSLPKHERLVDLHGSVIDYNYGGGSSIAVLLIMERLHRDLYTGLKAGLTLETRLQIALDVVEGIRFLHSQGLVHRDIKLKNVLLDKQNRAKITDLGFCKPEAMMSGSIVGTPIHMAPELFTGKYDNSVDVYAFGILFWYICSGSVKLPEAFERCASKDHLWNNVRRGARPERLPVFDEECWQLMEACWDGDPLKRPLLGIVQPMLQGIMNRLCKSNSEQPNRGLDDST
UniProt P52333, sequence (whole entry, looked up): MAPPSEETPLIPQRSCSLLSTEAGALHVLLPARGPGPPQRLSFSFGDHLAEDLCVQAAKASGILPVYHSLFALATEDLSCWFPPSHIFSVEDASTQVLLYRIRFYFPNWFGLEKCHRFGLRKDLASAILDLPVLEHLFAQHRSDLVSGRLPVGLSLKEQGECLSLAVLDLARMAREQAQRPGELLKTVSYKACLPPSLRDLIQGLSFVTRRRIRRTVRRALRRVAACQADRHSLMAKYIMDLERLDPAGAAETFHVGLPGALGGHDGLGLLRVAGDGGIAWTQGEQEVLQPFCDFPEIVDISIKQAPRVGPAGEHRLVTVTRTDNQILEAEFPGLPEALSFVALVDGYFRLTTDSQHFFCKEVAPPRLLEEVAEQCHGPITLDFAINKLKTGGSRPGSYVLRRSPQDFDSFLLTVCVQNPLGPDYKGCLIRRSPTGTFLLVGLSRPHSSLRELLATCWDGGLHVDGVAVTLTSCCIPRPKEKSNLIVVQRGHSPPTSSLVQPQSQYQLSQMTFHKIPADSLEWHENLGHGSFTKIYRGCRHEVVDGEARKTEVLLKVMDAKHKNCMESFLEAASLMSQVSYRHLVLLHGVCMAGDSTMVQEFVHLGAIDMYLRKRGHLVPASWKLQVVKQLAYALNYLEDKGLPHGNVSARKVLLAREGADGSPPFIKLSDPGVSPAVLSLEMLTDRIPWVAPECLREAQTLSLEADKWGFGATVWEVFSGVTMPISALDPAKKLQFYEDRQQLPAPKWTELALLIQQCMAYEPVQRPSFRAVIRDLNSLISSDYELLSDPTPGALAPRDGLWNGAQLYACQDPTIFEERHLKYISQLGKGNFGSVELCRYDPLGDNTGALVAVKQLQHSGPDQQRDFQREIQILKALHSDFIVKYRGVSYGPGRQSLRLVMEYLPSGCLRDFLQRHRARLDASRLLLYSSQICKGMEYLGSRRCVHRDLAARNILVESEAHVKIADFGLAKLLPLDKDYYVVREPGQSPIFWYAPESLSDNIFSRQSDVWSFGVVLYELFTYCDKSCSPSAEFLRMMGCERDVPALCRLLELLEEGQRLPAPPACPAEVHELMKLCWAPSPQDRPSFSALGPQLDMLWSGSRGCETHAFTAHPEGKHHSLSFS
UniProt Q8TDX7, sequence (whole entry, looked up): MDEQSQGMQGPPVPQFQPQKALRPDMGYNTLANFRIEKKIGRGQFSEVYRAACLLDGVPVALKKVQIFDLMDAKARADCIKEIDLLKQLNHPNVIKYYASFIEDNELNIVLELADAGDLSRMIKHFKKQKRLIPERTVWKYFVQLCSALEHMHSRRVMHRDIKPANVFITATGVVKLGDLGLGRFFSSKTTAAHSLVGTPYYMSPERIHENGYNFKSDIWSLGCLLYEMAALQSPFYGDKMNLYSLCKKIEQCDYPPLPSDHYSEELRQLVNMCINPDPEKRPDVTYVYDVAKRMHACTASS
UniProt P27037, sequence (whole entry, looked up): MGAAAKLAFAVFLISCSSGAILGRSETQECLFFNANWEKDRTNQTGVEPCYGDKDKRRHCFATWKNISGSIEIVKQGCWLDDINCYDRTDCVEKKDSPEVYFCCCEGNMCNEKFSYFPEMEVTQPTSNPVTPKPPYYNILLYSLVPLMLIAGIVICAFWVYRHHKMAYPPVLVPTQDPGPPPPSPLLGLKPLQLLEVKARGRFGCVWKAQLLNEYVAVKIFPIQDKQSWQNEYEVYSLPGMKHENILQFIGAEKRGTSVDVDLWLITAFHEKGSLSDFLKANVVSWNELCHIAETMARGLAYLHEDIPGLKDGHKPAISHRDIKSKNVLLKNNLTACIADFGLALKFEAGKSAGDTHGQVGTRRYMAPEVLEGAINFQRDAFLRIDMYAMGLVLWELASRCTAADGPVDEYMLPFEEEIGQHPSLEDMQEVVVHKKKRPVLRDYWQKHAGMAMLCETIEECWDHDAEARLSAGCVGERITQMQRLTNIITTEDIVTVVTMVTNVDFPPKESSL
UniProt Q8WU08, sequence (whole entry, looked up): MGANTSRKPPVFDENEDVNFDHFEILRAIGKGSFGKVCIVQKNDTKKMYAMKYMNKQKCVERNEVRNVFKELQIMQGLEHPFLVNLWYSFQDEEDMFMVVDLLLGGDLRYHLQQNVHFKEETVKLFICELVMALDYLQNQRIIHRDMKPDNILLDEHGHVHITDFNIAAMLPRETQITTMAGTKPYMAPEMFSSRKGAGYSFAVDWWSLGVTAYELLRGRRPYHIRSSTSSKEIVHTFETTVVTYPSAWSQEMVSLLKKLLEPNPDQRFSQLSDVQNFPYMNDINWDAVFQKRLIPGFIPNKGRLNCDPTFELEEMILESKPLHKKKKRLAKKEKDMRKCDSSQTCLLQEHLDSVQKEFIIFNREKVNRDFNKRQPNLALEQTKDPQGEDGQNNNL

Set 1
Target: Calcium/calmodulin-dependent protein kinase type II subunit gamma (CAMK2G, Homo sapiens, UniProt Q13555)
UniProt Q13555, sequence (whole entry, looked up): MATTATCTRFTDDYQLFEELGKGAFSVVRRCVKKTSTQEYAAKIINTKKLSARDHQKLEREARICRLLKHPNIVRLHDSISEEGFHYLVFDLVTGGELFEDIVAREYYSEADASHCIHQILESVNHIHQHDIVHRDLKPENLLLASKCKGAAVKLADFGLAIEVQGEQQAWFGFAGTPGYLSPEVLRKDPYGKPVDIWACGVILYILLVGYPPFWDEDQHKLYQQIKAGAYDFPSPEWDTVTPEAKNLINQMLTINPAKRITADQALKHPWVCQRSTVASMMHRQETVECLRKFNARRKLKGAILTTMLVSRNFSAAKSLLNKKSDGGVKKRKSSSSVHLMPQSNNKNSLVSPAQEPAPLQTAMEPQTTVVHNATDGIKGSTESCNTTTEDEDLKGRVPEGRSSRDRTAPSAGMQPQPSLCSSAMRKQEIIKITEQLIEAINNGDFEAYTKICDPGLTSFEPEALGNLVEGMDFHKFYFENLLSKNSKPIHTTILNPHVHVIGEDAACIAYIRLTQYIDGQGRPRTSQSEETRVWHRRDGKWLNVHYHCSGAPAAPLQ
Effect on: enzyme activity
Mode: inhibitor
Concentration: 0.5 µM
Reference: control
Structure (SMILES)	remaining activity [%]
O=c1cc(N2CCOCC2)oc2c(-c3ccccc3)cccc12	90.5
O=C1Nc2ccccc2/C1=C\c1c(Cl)[nH]c2ccccc12	103
O=Nc1c(-c2c(O)[nH]c3cc(Br)ccc23)[nH]c2ccccc12	28.3
COc1ccc(COc2ccc(Cc3cnc(N)nc3N)cc2OC)cc1	94.4
Cc1cc(Nc2cc(N3CCN(C)CC3)nc(Sc3ccc(NC(=O)C4CC4)cc3)n2)[nH]n1	109
O=C(c1cc2cc(O)ccc2[nH]1)c1cc2cc(O)ccc2[nH]1	89.5
c1ccc2c(-c3ccncc3)c[nH]c2c1	92.6

Set 2
Organism: Sarcocystis neurona
Effect on: parasite growth
Concentration: 10 µM
Time: 96 h
Setting: first screen
Reference: untreated
Structure (SMILES)	log2 fold change
O=C(C1CCCCC1)N1CC(=O)N2CCc3ccccc3C2C1 (stereo not shown)	-0.45
COc1ccc(-c2cc(=O)c3c(OC)c(OC)c(OC)c(OC)c3o2)cc1OC	-0.52
CO[C@H]1/C=C/O[C@@]2(C)Oc3c(C)c(O)c4c(O)c(c(/C=N/N5CCN(C)CC5)c(O)c4c3C2=O)NC(=O)/C(C)=C\C=C\[C@H](C)[C@H](O)[C@@H](C)[C@@H](O)[C@@H](C)[C@H](OC(C)=O)[C@@H]1C	0.44

Set 3
SMILES: Cc1nccc(COC(=O)N2C[C@@H]3[C@@H](CNC(=O)c4ccc5[nH]nnc5c4)[C@@H]3C2)n1
Effect on: cell-free assay
Method: competition with immobilised ligand
Concentration: 1 µM
target	remaining binding [%]
Calcium/calmodulin-dependent protein kinase type II subunit delta (CAMK2D, Homo sapiens, UniProt Q13557)	100
Activin receptor type-2A (ACVR2A, Homo sapiens, UniProt P27037)	69
Serine/threonine-protein kinase 32A (STK32A, Homo sapiens, UniProt Q8WU08)	94
Insulin receptor-related protein (INSRR, Homo sapiens, UniProt P14616)	100
Serine/threonine-protein kinase Nek7 (NEK7, Homo sapiens, UniProt Q8TDX7)	100
Tyrosine-protein kinase JAK3, JH1 (JAK3, Homo sapiens, UniProt P52333)	96
Discoidin domain-containing receptor 2 (DDR2, Homo sapiens, UniProt Q16832)	77
Cyclin-dependent kinase 15 (CDK15, Homo sapiens, UniProt Q96Q40)	100
Dual serine/threonine and tyrosine protein kinase (DSTYK, Homo sapiens, UniProt Q6XUX3)	69
Receptor-type tyrosine-protein kinase FLT3 (FLT3, Homo sapiens, UniProt P36888, ITD)	100

Single results of other studies
Compound	target or system	test	test system	conditions	how to read	measurement	result
CC(C)S(=O)(=O)c1ccc2nccc(Nc3ccc4sc(C5CCCC5)nc4c3)c2c1.Cl	L929	caspase activity, Ac-DEVD-pNA absorbance		50 µM, 0 h	higher = more activity	caspase-3 activity	-0.0035 a.u. and 0.019 a.u. and 0.0075 a.u. and 0.015 a.u. and 0.011 a.u.
CC(C)n1cnc(-c2ccc(F)cc2)c1-c1ncc(C(=O)Nc2ccc(N3CCN(C)CC3)cc2)[nH]1		phase 2a clinical trial	patients with idiopathic pulmonary fibrosis	60 mg once daily		patients with ALP increased TEAE	0%

For quick reference, copied from above (set 3):
target	remaining binding [%]
Tyrosine-protein kinase JAK3, JH1 (JAK3, Homo sapiens, UniProt P52333)	96
Discoidin domain-containing receptor 2 (DDR2, Homo sapiens, UniProt Q16832)	77
Cyclin-dependent kinase 15 (CDK15, Homo sapiens, UniProt Q96Q40)	100
